Results from different studies.
Values joined by “and” are separate records of one study, mostly repeats; a detail may differ.
Target: Calcium/calmodulin-dependent protein kinase type II subunit gamma (CAMK2G, Homo sapiens, UniProt Q13555)

C=CC(=O)N1Cc2nc(-c3cc(-c4cc(Cl)cnc4Cl)c(F)cc3F)n(-c3ccncn3)c2C1 — inhibition (cell-free assay; 1 µM): 4.8%
COc1c(Cl)cccc1Nc1c(-c2ccncc2C#C[C@@]2(C)CCCN2C(=O)/C=C/CN(C)C)[nH]c2c1C(=O)NCC2 — remaining binding (binding, competition with immobilised ligand; 3 µM): 100%
CNC1C[S+]2CC[S+]3CC[S+](C1)[Ru-4]321([N]=C=S)[n]2c3ccc(OC)cc3c3c4c(c5cc(F)c[n+]1c5c32)C(=O)NC4=O (stereo not drawn) — remaining binding (KinomeScan; 0.1 µM; baseline: untreated): 84%
NC(=O)[C@@H](O)C[C@H]1CCc2sc3ncnc(O[C@H]4CC[C@H](N5CCOCC5)CC4)c3c21 — inhibition (enzyme activity, inhibitor; 10 µM): -6%
CNC(=O)C1CCN(c2cc(C)c(F)cc2NC(=O)c2ccc(-c3cc(O)ccc3C)c(C)c2)CC1 — remaining binding (binding, competition with immobilised ligand; 1 µM): 93%
CS(=O)(=O)Nc1cccc(-c2csc3cnc(Nc4ccc(N5CCN(CCCCCOc6cccc7c6C(=O)N(C6CCC(=O)NC6=O)C7=O)CC5)cc4)nc23)c1 (stereo not drawn) — inhibition (probe labelling, inhibitor, KiNativ chemoproteomics; MOLT-4; 1 µM): -4.27%
COc1cc(Nc2nccc(-c3cnn4nc(OC)ccc34)n2)cc(C(F)(F)F)c1 — remaining binding (binding, competition with immobilised ligand; 1 µM): 100%
Cc1cnc2nc1Nc1cccc(c1)COC/C=C/COCc1cc(ccc1OCCN1CCOCC1)N2 — remaining binding (binding; 0.1 µM): 100%
CCn1cc(C(=O)O)c(=O)c2c(N)c(F)c(NC3CCCCC3)cc21 — inhibition (kinase activity; 0.1 µM, together with: ATP at Km): 1.2%
N[C@H]1CC[C@H](Nc2nccc(-c3cccnc3Oc3ccc(NC(=O)NC4CC4)c4ccccc34)n2)CC1 — log2 LFQ intensity (kinobead competition pulldown; HEK293/HCT116 lysate mixture; 10 µM, 1 h, 4 °C; lower = stronger competition): 30 and 29.9 and 29.8
C=CC(=O)Nc1cccc(-c2cnc3[nH]cc(C(=O)NC(C)(C)C)c3n2)c1 — inhibition (kinase activity; 0.1 µM): -1% and 0%
Cc1ccc(-c2c(/C=C(\C#N)C(=O)NC(C)C)n(CCCO)c3ncnc(N)c23)cc1 — remaining binding (cell-free assay, competition with immobilised ligand; 1 µM): 100%
Cc1cccc(O[C@H]2CCC[C@@H](C(C)CNCc3ccncc3)C2)c1 (relative stereo) — inhibition (cell-free assay; 1 µM): -10%
CN1CC[C@@H](COc2cnc(C#N)cc2-c2ccn3nc(NC(=O)C4CC4)cc3c2)C1 — inhibition (enzyme activity, inhibitor; 1 µM): 10%
COc1ccc(NC(=O)Nc2ccc3c(c2)C(=O)N(C(C)CO)CC(C)C(CN(C)Cc2ccc4c(c2)OCO4)O3)cc1 (stereo not drawn) — remaining activity (kinase activity, KinaseProfiler; 0.03 µM, species human; baseline: control): 104%

Some of these lines once more:
CNC1C[S+]2CC[S+]3CC[S+](C1)[Ru-4]321([N]=C=S)[n]2c3ccc(OC)cc3c3c4c(c5cc(F)c[n+]1c5c32)C(=O)NC4=O (stereo not drawn) — remaining binding (KinomeScan; 0.1 µM; baseline: untreated): 84%
NC(=O)[C@@H](O)C[C@H]1CCc2sc3ncnc(O[C@H]4CC[C@H](N5CCOCC5)CC4)c3c21 — inhibition (enzyme activity, inhibitor; 10 µM): -6%
